Published values collected from several papers.
Target: Epithelial discoidin domain-containing receptor 1 (DDR1, Homo sapiens, UniProt Q08345)

`C=CC(=O)N1CCCC(n2c(=O)c3ncccc3n(Cc3ccc(Oc4ccccc4)cc3)c2=O)C1` (centres unmarked) gave a remaining binding of 90% (cell-free assay, competition with immobilised ligand; 1 µM).
Under “activity vs control”, `O=C(Cc1ccc(OCc2ccccc2)cc1)NC1(C(=O)O)CCN(C(=O)c2ccc(-c3cccc(Cl)c3)cc2)CC1` is recorded as 93% (enzyme activity, inhibitor; 10 µM).
The remaining binding of `COc1cc(Nc2nccc(-c3cnn4nc(OC)ccc34)n2)cc(C(F)(F)F)c1` is reported as 100% (binding, competition with immobilised ligand; 1 µM).
With `COc1c(Cl)cccc1Nc1c(-c2ccncc2C#C[C@@]2(C)CCCN2C(=O)/C=C/CN(C)C)[nH]c2c1C(=O)NCC2` the remaining binding was 8.6% (cell-free assay, competition with immobilised ligand; 3 µM).
For `Cc1cnc2nc1Nc1cccc(c1)COC/C=C/COCc1cc(ccc1OCCN1CCOCC1)N2`, the remaining binding was 75% (binding; 0.1 µM).
`NC(=O)C[C@H]1CCc2sc3ncnc(O[C@H]4CC[C@H](N5CCOCC5)CC4)c3c21` gave an inhibition of 39% (enzyme activity, inhibitor; 10 µM).
`CC(C)=CC1OC(C)(C)C2C=C3C(=O)C(Cl)=CC(O)C3C3C(O)C4OC4C(=O)C132` (centres unmarked) has a remaining binding of 91% (cell-free assay, competition with immobilised ligand; 10 µM).
For `CCN1CCN(Cc2ccc(C(=O)Nc3ccc(C)c(NCc4cnc5[nH]ccc5c4OC)c3)cc2C(F)(F)F)CC1`, the remaining binding was 0.15% (binding, competition with immobilised ligand; 1 µM).
`CNC1C[S+]2CC[S+]3CC[S+](C1)[Ru-4]321([N]=C=S)[n]2c3ccc(OC)cc3c3c4c(c5cc(F)c[n+]1c5c32)C(=O)NC4=O` (centres unmarked) has a remaining binding of 99% (KinomeScan; 0.1 µM; relative to: untreated).
With `Cc1cccc(O[C@H]2CCC[C@@H](C(C)CNCc3ccncc3)C2)c1` (relative stereo) the inhibition was -1% (cell-free assay; 10 µM).
With `CN1CCN(Cc2ccc(-c3ccc(CO[C@H]4CCC[C@@H]4NC(=O)c4cc(-c5cnn(C)c5)cnc4N)cc3)cc2)CC1` the inhibition was -5% (enzyme activity, inhibitor; 0.1 µM).
With `Cc1ccc(-c2c(/C=C(\C#N)C(=O)NC(C)C)n(CCCO)c3ncnc(N)c23)cc1` the remaining binding was 57% (cell-free assay, competition with immobilised ligand; 1 µM).
For `C=CC(=O)N1Cc2nc(-c3cc(-c4cc(Cl)cnc4Cl)c(F)cc3F)n(-c3ccncn3)c2C1`, the inhibition was -0.5% (cell-free assay; 1 µM).
`CN1CC[C@@H](COc2cnc(C#N)cc2-c2ccn3nc(NC(=O)C4CC4)cc3c2)C1` has an inhibition of 54% (enzyme activity, inhibitor; 1 µM).

Excerpt of the above:
For `Cc1cnc2nc1Nc1cccc(c1)COC/C=C/COCc1cc(ccc1OCCN1CCOCC1)N2`, the remaining binding was 75% (binding; 0.1 µM).
